# Experimental data collected from several papers.
# Each line is one published result; not all experiments were run side by side. Values joined by “and” are separate records of one study, mostly repeats; a detail may differ.
# Cell line: MCF7
SMILES,test,conditions,scale,measurement,result
CC[C@@]12SS[C@]3(C(=O)N1C)[C@@H](O)C1(C45c6ccccc6N[C@@H]4N4C(=O)[C@]6([C@@H](C)O)SS[C@]4(C(=O)N6C)[C@H]5O)c4ccccc4N[C@@H]1N3C2=O (stereo partly shown),"cell growth or viability, SRB",,,IC50,610 nM
C=C(C[C@H](N)C(=O)O)C(=O)Nc1ccc(Cl)cc1,,72 h,relative to: vehicle,concentration increasing cytotoxicity,320 µM
Cc1ncsc1-c1ccc(CNC(=O)[C@@H]2C[C@@H](O)CN2C(=O)[C@@H](NC(=O)COCCOCCOCCNC(=O)C[C@@H]2N=C(c3ccc(Cl)cc3)c3c(sc(C)c3C)-n3c(C)nnc32)C(C)(C)C)cc1,LC-MS/MS,"100 nM, 12 h, serum-free, then 24 h",relative to: dose,cellular uptake,0.049%
C/C=C(\C)C(=O)O[C@@H]1[C@@H](O)[C@@H]2O[C@H]3[C@H](O[C@@H](CCCCC)CCCCCCC(=O)CCC(=O)OC[C@@H](O2)[C@H]1OC(=O)/C=C/c1ccccc1)O[C@H](C)[C@H](OC(C)=O)[C@@H]3O,cytotoxicity,,,IC50,43.7 nM
CCN1CCN(CC(=O)Nc2ccc(-c3cccc4c(=O)cc(N5CCOCC5)oc34)c3sc4ccccc4c23)CC1,clonogenic survival,"1 µM, 16 h, together with: etoposide 1 µM",relative to: etoposide alone over combination,fold enhancement,8.9 fold and < 10 fold and 9 fold
N=C(N)NCCC[C@H](NC(=O)[C@H](CCCNC(=N)N)NC(=O)[C@H](CCCNC(=N)N)NC(=O)[C@H](CCCNC(=N)N)NC(=O)[C@H](CCCNC(=N)N)NC(=O)[C@H](CCCNC(=N)N)NC(=O)[C@H](CCCNC(=N)N)NC(=O)[C@H](CCCNC(=N)N)NC(=O)c1ccc2c(c1)C(=O)OC21c2ccc(O)cc2Oc2cc(O)ccc21)C(N)=O,MTS,,,LC50,80000 nM
CC/C(=C(\c1ccccc1)c1ccc(OCCN(C)C)cc1)c1ccccc1,,72 h,relative to: vehicle,concentration increasing cytotoxicity,100 µM
CN1C(=O)[C@@]23C[C@]4([C@@]56c7ccccc7N[C@@H]5N5C(=O)[C@]7(C)SS[C@]5(C(=O)N7C)[C@H]6O)c5ccccc5N[C@@H]4N2C(=O)[C@]1(C)SS3,"cell growth or viability, SRB",,,IC50,30 nM
C=C(C[C@H](N)C(=O)O)C(=O)Nc1ccccc1,,72 h,relative to: vehicle,concentration increasing cytotoxicity,320 µM
CN1C(=O)[C@]23SS[C@@]1(C)C(=O)N2[C@H]1Nc2ccccc2[C@@]1([C@@]12c4ccccc4N[C@@H]1N1C(=O)[C@@]4(C)SS[C@]1(C(=O)N4C)[C@H]2O)[C@@H]3O,"cell growth or viability, SRB",,,IC50,370 nM

# Repeated from above:
SMILES,test,conditions,scale,measurement,result
C/C=C(\C)C(=O)O[C@@H]1[C@@H](O)[C@@H]2O[C@H]3[C@H](O[C@@H](CCCCC)CCCCCCC(=O)CCC(=O)OC[C@@H](O2)[C@H]1OC(=O)/C=C/c1ccccc1)O[C@H](C)[C@H](OC(C)=O)[C@@H]3O,cytotoxicity,,,IC50,43.7 nM
